Assay results collected from several papers.
Each line is one published result; not all experiments were run side by side. Several values in a cell are separate wells, animals, samples, runs or records. Numbers after ± are the reported error.
Cereblon/Ikaros: Cereblon/Ikaros (Homo sapiens, UniProt Q13422+Q96SW2)
Chain of UniProt Q13422 (whole entry, looked up): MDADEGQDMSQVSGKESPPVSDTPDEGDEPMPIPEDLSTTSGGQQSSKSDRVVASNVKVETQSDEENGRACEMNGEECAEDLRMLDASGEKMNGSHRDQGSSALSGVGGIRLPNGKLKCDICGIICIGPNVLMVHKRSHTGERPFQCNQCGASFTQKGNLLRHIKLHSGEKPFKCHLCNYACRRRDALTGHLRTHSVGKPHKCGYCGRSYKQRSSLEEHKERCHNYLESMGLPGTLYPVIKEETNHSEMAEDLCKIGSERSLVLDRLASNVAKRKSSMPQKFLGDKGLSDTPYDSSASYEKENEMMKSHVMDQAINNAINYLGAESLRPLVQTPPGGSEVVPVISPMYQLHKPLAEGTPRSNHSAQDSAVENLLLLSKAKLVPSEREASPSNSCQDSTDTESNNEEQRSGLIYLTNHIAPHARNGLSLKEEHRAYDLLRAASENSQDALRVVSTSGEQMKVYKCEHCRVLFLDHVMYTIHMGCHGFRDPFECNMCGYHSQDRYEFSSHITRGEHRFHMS
Chain of UniProt Q96SW2 (whole entry, looked up): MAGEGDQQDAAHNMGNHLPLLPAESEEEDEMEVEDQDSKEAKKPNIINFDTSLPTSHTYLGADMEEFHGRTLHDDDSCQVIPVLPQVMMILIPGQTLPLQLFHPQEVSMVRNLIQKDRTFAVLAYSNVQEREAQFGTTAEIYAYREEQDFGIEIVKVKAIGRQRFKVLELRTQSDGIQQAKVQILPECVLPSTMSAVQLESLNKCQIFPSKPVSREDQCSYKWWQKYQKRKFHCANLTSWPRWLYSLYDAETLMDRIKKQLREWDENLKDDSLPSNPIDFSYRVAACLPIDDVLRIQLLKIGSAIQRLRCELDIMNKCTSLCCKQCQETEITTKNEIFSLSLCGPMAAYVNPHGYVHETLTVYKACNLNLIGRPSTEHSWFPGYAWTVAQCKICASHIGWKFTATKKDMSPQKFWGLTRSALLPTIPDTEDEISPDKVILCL
IDE: Insulin-degrading enzyme (IDE, Homo sapiens, UniProt P14735)
USP33 ZnF-UBD domain: Ubiquitin carboxyl-terminal hydrolase 33, ZnF-UBD domain (USP33, Homo sapiens, UniProt Q8TEY7)
Chain of UniProt Q8TEY7 (whole entry, looked up): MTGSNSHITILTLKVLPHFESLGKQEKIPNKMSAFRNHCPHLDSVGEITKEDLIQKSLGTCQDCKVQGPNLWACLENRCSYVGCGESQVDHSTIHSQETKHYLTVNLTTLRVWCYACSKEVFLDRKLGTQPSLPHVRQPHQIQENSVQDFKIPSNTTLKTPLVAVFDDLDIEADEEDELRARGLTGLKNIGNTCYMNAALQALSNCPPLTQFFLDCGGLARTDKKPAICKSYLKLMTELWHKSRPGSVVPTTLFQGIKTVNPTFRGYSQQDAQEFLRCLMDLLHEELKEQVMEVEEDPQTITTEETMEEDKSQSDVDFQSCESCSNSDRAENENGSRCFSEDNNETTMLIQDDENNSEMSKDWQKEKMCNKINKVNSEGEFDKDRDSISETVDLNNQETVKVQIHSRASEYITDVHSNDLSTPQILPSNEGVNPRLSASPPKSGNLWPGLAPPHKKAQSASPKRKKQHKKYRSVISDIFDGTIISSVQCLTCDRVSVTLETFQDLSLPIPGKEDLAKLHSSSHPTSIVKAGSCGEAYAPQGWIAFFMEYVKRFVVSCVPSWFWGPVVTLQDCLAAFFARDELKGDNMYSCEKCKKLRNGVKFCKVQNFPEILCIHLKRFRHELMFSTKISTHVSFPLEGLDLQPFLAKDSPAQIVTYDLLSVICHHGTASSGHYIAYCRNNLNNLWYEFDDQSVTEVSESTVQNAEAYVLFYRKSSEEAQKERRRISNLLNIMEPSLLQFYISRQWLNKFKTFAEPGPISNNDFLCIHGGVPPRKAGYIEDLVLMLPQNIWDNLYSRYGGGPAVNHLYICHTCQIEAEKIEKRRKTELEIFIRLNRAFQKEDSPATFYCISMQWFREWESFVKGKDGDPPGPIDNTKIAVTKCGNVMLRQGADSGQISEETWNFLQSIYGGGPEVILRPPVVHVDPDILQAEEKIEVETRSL
Chain of UniProt Q13336 (whole entry, looked up): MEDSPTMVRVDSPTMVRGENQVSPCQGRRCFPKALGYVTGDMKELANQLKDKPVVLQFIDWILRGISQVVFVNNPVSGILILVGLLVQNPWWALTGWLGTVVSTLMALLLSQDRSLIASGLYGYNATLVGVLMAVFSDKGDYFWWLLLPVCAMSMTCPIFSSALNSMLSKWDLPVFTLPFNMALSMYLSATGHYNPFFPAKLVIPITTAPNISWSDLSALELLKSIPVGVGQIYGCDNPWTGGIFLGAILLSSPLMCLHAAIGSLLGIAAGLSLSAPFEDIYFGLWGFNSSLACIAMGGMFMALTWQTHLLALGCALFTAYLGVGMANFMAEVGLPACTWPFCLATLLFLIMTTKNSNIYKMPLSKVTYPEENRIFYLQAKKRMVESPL

SMILES	target	assay	test system	setting	quantity	value
Cn1nc(Nc2ccc3c(c2)CN(C2CCC(=O)NC2=O)C3=O)c2ccccc21 (stereo not shown)	Cereblon/Ikaros	degrader, live-cell HiBiT kinetic	Jurkat Ikaros-HiBiT LgBiT	–	DC50	> 10 µM
CCCNC(=O)N1CC(=O)N2[C@@H](CO)[C@@H](c3ccc(C#Cc4cccc(OC)c4)cc3)[C@@H]2C1	IDE	enzyme activity, inhibitor, fluorogenic kinetic	–	added: Mca-RPPGFSAFK(Dnp)-OH substrate	EC50	11 µM
NC(=O)[C@H]1CCCN1C(=O)CCC(=O)O	USP33 ZnF-UBD domain	–	–	–	Kd	> 1000 µM
NS(=O)(=O)c1nnc(NC(=O)C2CCC3(CCCCC3)C2)s1 (stereo not shown)	Enterococcus faecium γ-carbonic anhydrase	CO2 hydration, inhibitor, stopped-flow kinetics	–	–	Ki	0.199 µM
COc1ccccc1-c1ccc([C@@H]2[C@@H](C#N)N(C(=O)c3cccnc3)[C@@H]2CO)cc1	IDE	enzyme activity, inhibitor, fluorogenic kinetic	–	added: Mca-RPPGFSAFK(Dnp)-OH substrate	EC50	1.2 µM
CC(=S)Nc1ccccc1	Urea transporter 1 (Homo sapiens, UniProt Q13336)	urea transport inhibition	–	added: thiourea	Ki	1000 µM
CN(CCc1ccc(Cl)c(C(F)(F)F)c1)C1(c2cccc(NC3=CC(=O)N(C4CCC(=O)NC4=O)C3=O)c2)CCC1 (stereo not shown)	Cereblon/Ikaros	degrader	human cells	–	DC50	0.01 µM
N[C@@H](CCC(=O)O)C(=O)O	Uncharacterized protein (Pelagibacter ubique, UniProt Q4FM26)	binding, competition isothermal titration calorimetry	Candidatus Pelagibacter ubique	added: phenylalanine competitor	Kd	0.00067 µM and 0.00053 µM
NS(=O)(=O)c1nnc(NC(=O)CCC2CCCCO2)s1 (stereo not shown)	Enterococcus faecium γ-carbonic anhydrase	CO2 hydration, inhibitor, stopped-flow kinetics	–	–	Ki	0.181 µM
O=C(O)CCc1ccccc1	USP33 ZnF-UBD domain	–	–	–	Kd	> 1000 µM
CN1C(=O)c2cc(NC(=O)Nc3ccccc3Cl)ccc2OC[C@H]2O[C@H](CC(=O)NCCCN3CCOCC3)CC[C@@H]21	IDE	enzyme activity, inhibitor, fluorogenic kinetic	–	added: Mca-RPPGFSAFK(Dnp)-OH substrate	EC50	1.7 µM
O=C(O)CCc1ccc2c(c1)OCO2	USP33 ZnF-UBD domain	–	–	–	Kd	> 1000 µM
CC(C)(CNC1(c2cccc(NC3=CC(=O)N(C4CCC(=O)NC4=O)C3=O)c2)CCC1)c1ccc(C(F)(F)F)c(Cl)c1 (stereo not shown)	Cereblon/Ikaros	degrader	–	–	DC50	0.55 ± 0.06 µM
Cc1cccc(-c2ccc([C@@H]3[C@H](CO)N4CCCCN(S(=O)(=O)c5ccccc5F)C[C@@H]34)cc2)c1	IDE	enzyme activity, inhibitor, fluorogenic kinetic	–	added: Mca-RPPGFSAFK(Dnp)-OH substrate	EC50	0.55 µM
CC(C)(NCCCc1ccc(C(F)(F)F)c(Cl)c1)c1cccc(NC2=CC(=O)N(C3CCC(=O)NC3=O)C2=O)c1 (stereo not shown)	Cereblon/Ikaros	degrader	–	–	DC50	0.1 µM
NS(=O)(=O)c1nnc(NC(=O)C2CCCC3(CCCCC3)C2)s1 (stereo not shown)	Enterococcus faecium γ-carbonic anhydrase	CO2 hydration, inhibitor, stopped-flow kinetics	–	–	Ki	0.448 µM
CCC(C)(NCCc1ccc(C(F)(F)F)c(Cl)c1)c1cccc(NC2=CC(=O)N(C3CCC(=O)NC3=O)C2=O)c1 (stereo not shown)	Cereblon/Ikaros	degrader, HiBiT luminescence, refers to: endogenous HiBiT-tagged protein	–	–	DC50	0.04 ± 0.007 µM

SMILES	target	assay	test system	setting	quantity	value
CCCNC(=O)N1CC(=O)N2[C@H](CO)[C@@H](c3ccc(-c4cccc(C)c4)cc3)[C@@H]2C1	IDE	enzyme activity, inhibitor, fluorogenic kinetic	–	added: Mca-RPPGFSAFK(Dnp)-OH substrate	EC50	0.77 µM
NC[C@@H]1O[C@H](O[C@H]2[C@@H](O)[C@H](O[C@@H]3[C@@H](O)[C@H](N)C[C@H](N)[C@H]3O[C@H]3O[C@H](CN)[C@@H](O)[C@H](O)[C@H]3N)O[C@@H]2CO)[C@H](N)[C@@H](O)[C@@H]1O	(CUG)10 RNA	SPR	–	–	Kd	0.346 µM
NS(=O)(=O)c1nnc(NC(=O)C2CCCC3(CCCCC3)O2)s1 (stereo not shown)	Enterococcus faecium γ-carbonic anhydrase	CO2 hydration, inhibitor, stopped-flow kinetics	–	–	Ki	0.311 µM
CCC(C)(NCCc1ccc(C(F)(F)F)cc1C(F)(F)F)c1cccc(NC2=CC(=O)N(C3CCC(=O)NC3=O)C2=O)c1 (stereo not shown)	Cereblon/Ikaros	degrader, HiBiT luminescence, refers to: endogenous HiBiT-tagged protein	–	–	DC50	0.19 ± 0.038 µM
O=C(O)CNc1ncnc2ccccc12	USP33 ZnF-UBD domain	–	–	–	Kd	> 1000 µM
Cc1cccc(-c2ccc([C@@H]3[C@H](CO)N4CCCCN(S(=O)(=O)c5cn(C)cn5)C[C@@H]34)cc2)c1	IDE	enzyme activity, inhibitor, fluorogenic kinetic	–	added: Mca-RPPGFSAFK(Dnp)-OH substrate	EC50	2.1 µM
NS(=O)(=O)c1nnc(NC(=O)CN2CC3CCC(C2)O3)s1	Enterococcus faecium γ-carbonic anhydrase	CO2 hydration, inhibitor, stopped-flow kinetics	–	–	Ki	0.0681 µM
Cc1ccccc1-c1ccc([C@H]2[C@@H](CO)N3CCCCN(C(=O)c4cccnc4)C[C@H]23)cc1	IDE	enzyme activity, inhibitor, fluorogenic kinetic	–	added: Mca-RPPGFSAFK(Dnp)-OH substrate	EC50	3.1 µM
O=C1CCC(N2Cc3cc(NC(=O)c4cccc(F)c4)ccc3C2=O)C(=O)N1 (stereo not shown)	Cereblon/Ikaros	degrader, live-cell HiBiT kinetic	Jurkat Ikaros-HiBiT LgBiT	–	DC50	> 10 µM
O=C(O)CCn1c(=O)oc2ccccc21	USP33 ZnF-UBD domain	–	–	–	Kd	> 1000 µM
NS(=O)(=O)c1nnc(NC(=O)C2CCC3(CCC3)CC2)s1	Enterococcus faecium γ-carbonic anhydrase	CO2 hydration, inhibitor, stopped-flow kinetics	–	–	Ki	0.23 µM
O=C1CCC(N2C(=O)C=C(Nc3cccc(-c4cn(CCc5ccc(C(F)(F)F)c(Cl)c5)nn4)c3)C2=O)C(=O)N1 (stereo not shown)	Cereblon/Ikaros	degrader, HiBiT luminescence, refers to: endogenous HiBiT-tagged protein	–	–	DC50	0.02 ± 2 µM
COc1ccc(C=C2SC(=O)N(C(C)C(=O)O)C2=O)cc1 (stereo not shown)	USP33 ZnF-UBD domain	–	–	–	Kd	> 1000 µM
NS(=O)(=O)c1nnc(NC(=O)CN2CC3CCC2CC3)s1	Enterococcus faecium γ-carbonic anhydrase	CO2 hydration, inhibitor, stopped-flow kinetics	–	–	Ki	0.0949 µM
Cc1ccccc1-c1ccc([C@H]2[C@@H](CO)N3CCCCN(C(=O)CN4CCOCC4)C[C@@H]23)cc1	IDE	enzyme activity, inhibitor, fluorogenic kinetic	–	added: Mca-RPPGFSAFK(Dnp)-OH substrate	EC50	25 µM
NS(=O)(=O)c1nnc(NC(=O)C(F)C2CCCCC2)s1 (stereo not shown)	Enterococcus faecium γ-carbonic anhydrase	CO2 hydration, inhibitor, stopped-flow kinetics	–	–	Ki	0.225 µM
O=C(O)Cn1cnc2ccccc2c1=O	USP33 ZnF-UBD domain	–	–	–	Kd	> 1000 µM

A few entries again:
SMILES	target	assay	test system	setting	quantity	value
Cc1cccc(-c2ccc([C@@H]3[C@H](CO)N4CCCCN(S(=O)(=O)c5cn(C)cn5)C[C@@H]34)cc2)c1	IDE	enzyme activity, inhibitor, fluorogenic kinetic	–	added: Mca-RPPGFSAFK(Dnp)-OH substrate	EC50	2.1 µM
NS(=O)(=O)c1nnc(NC(=O)CN2CC3CCC(C2)O3)s1	Enterococcus faecium γ-carbonic anhydrase	CO2 hydration, inhibitor, stopped-flow kinetics	–	–	Ki	0.0681 µM
Cc1ccccc1-c1ccc([C@H]2[C@@H](CO)N3CCCCN(C(=O)c4cccnc4)C[C@H]23)cc1	IDE	enzyme activity, inhibitor, fluorogenic kinetic	–	added: Mca-RPPGFSAFK(Dnp)-OH substrate	EC50	3.1 µM
O=C1CCC(N2Cc3cc(NC(=O)c4cccc(F)c4)ccc3C2=O)C(=O)N1 (stereo not shown)	Cereblon/Ikaros	degrader, live-cell HiBiT kinetic	Jurkat Ikaros-HiBiT LgBiT	–	DC50	> 10 µM
O=C(O)CCn1c(=O)oc2ccccc21	USP33 ZnF-UBD domain	–	–	–	Kd	> 1000 µM
NS(=O)(=O)c1nnc(NC(=O)C2CCC3(CCC3)CC2)s1	Enterococcus faecium γ-carbonic anhydrase	CO2 hydration, inhibitor, stopped-flow kinetics	–	–	Ki	0.23 µM
